Published values collected from several papers.
Protocols differ between the studies behind these lines. “And” joins repeats or separate records; there may be more than shown.
T1: itself; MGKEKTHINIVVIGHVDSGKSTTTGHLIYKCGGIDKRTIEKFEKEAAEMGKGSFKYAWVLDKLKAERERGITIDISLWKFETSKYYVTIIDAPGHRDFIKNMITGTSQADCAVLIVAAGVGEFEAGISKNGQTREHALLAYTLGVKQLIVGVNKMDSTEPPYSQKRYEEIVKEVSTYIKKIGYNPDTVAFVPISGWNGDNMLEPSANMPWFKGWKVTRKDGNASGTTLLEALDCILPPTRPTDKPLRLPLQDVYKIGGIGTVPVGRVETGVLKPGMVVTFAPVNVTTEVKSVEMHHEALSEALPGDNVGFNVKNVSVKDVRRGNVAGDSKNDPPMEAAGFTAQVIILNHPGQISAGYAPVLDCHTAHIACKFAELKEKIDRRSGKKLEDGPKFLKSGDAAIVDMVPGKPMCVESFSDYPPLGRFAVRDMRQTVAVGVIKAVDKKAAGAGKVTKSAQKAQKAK
T2: itself; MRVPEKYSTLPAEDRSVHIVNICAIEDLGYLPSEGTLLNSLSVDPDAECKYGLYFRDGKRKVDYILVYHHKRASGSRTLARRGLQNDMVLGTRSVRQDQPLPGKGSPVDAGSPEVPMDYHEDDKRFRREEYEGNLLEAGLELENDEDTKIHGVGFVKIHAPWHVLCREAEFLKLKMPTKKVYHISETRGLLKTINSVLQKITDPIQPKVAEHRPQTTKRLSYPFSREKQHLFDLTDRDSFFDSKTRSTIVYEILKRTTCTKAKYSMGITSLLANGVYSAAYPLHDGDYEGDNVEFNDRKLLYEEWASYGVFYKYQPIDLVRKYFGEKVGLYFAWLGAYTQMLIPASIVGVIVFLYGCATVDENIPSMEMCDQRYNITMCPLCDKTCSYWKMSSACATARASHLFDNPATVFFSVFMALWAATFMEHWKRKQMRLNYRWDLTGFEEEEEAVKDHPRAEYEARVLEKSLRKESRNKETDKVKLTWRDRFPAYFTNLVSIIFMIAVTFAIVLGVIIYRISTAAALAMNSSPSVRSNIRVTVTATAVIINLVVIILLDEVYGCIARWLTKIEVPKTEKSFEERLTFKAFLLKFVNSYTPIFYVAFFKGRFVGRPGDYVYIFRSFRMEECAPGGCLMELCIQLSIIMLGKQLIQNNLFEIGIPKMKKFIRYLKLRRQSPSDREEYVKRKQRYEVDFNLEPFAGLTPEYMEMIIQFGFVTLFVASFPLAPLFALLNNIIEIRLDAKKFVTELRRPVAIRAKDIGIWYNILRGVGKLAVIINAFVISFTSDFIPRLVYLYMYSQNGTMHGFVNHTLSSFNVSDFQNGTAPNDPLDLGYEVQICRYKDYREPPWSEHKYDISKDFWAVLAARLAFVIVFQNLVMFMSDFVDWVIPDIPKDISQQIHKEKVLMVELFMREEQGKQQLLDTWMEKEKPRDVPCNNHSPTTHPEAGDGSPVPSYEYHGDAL
T3: itself; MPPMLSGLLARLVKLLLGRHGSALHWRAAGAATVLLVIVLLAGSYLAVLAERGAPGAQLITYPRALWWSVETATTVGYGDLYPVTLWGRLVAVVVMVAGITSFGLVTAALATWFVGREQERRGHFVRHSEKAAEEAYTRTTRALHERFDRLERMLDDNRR
T4: itself; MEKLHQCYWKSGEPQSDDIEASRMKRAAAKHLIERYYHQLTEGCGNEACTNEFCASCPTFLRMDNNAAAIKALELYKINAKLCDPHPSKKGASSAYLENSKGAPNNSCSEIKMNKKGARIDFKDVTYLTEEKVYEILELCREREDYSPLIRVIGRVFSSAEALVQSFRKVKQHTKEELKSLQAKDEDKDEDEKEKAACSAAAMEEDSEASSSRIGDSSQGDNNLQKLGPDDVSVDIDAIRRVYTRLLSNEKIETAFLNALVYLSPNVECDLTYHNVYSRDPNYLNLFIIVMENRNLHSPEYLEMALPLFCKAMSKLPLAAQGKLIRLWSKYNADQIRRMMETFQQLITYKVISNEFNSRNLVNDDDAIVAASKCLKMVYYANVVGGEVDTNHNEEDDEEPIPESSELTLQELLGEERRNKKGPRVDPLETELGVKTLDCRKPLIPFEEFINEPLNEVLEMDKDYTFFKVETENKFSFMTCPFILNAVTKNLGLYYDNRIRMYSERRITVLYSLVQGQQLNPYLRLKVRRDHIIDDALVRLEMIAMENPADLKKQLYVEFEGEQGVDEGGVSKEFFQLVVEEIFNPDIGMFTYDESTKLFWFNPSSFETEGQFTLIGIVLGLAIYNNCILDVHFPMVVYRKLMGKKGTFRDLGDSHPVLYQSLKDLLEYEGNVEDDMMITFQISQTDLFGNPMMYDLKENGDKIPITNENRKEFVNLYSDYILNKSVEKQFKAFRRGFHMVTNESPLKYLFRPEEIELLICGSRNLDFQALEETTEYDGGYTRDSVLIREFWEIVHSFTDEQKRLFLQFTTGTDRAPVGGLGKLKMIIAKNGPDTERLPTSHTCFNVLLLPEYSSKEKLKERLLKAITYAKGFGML
B1: EEF1A1 (Oryctolagus cuniculus, UniProt P68105); chain MGKEKTHINIVVIGHVDSGKSTTTGHLIYKCGGIDKRTIEKFEKEAAEMGKGSFKYAWVLDKLKAERERGITIDISLWKFETSKYYVTIIDAPGHRDFIKNMITGTSQADCAVLIVAAGVGEFEAGISKNGQTREHALLAYTLGVKQLIVGVNKMDSTEPPYSQKRYEEIVKEVSTYIKKIGYNPDTVAFVPISGWNGDNMLEPSANMPWFKGWKVTRKDGNASGTTLLEALDCILPPTRPTDKPLRLPLQDVYKIGGIGTVPVGRVETGVLKPGMVVTFAPVNVTTEVKSVEMHHEALSEALPGDNVGFNVKNVSVKDVRRGNVAGDSKNDPPMEAAGFTAQVIILNHPGQISAGYAPVLDCHTAHIACKFAELKEKIDRRSGKKLEDGPKFLKSGDAAIVDMVPGKPMCVESFSDYPPLGRFAVRDMRQTVAVGVIKAVDKKAAGAGKVTKSAQKAQKAK
B2: MIF (Homo sapiens, UniProt P14174); chain MPMFIVNTNVPRASVPDGFLSELTQQLAQATGKPPQYIAVHVVPDQLMAFGGSSEPCALCSLHSIGKIGGAQNRSYSKLLCGLLAERLRISPDRVYINYYDMNAANVGWNNSTFA
B3: Ano1 (Mus musculus, UniProt Q8BHY3); chain MRVPEKYSTLPAEDRSVHIVNICAIEDLGYLPSEGTLLNSLSVDPDAECKYGLYFRDGKRKVDYILVYHHKRASGSRTLARRGLQNDMVLGTRSVRQDQPLPGKGSPVDAGSPEVPMDYHEDDKRFRREEYEGNLLEAGLELENDEDTKIHGVGFVKIHAPWHVLCREAEFLKLKMPTKKVYHISETRGLLKTINSVLQKITDPIQPKVAEHRPQTTKRLSYPFSREKQHLFDLTDRDSFFDSKTRSTIVYEILKRTTCTKAKYSMGITSLLANGVYSAAYPLHDGDYEGDNVEFNDRKLLYEEWASYGVFYKYQPIDLVRKYFGEKVGLYFAWLGAYTQMLIPASIVGVIVFLYGCATVDENIPSMEMCDQRYNITMCPLCDKTCSYWKMSSACATARASHLFDNPATVFFSVFMALWAATFMEHWKRKQMRLNYRWDLTGFEEEEEAVKDHPRAEYEARVLEKSLRKESRNKETDKVKLTWRDRFPAYFTNLVSIIFMIAVTFAIVLGVIIYRISTAAALAMNSSPSVRSNIRVTVTATAVIINLVVIILLDEVYGCIARWLTKIEVPKTEKSFEERLTFKAFLLKFVNSYTPIFYVAFFKGRFVGRPGDYVYIFRSFRMEECAPGGCLMELCIQLSIIMLGKQLIQNNLFEIGIPKMKKFIRYLKLRRQSPSDREEYVKRKQRYEVDFNLEPFAGLTPEYMEMIIQFGFVTLFVASFPLAPLFALLNNIIEIRLDAKKFVTELRRPVAIRAKDIGIWYNILRGVGKLAVIINAFVISFTSDFIPRLVYLYMYSQNGTMHGFVNHTLSSFNVSDFQNGTAPNDPLDLGYEVQICRYKDYREPPWSEHKYDISKDFWAVLAARLAFVIVFQNLVMFMSDFVDWVIPDIPKDISQQIHKEKVLMVELFMREEQGKQQLLDTWMEKEKPRDVPCNNHSPTTHPEAGDGSPVPSYEYHGDAL
B4: kcsA (Streptomyces lividans, UniProt P0A334); chain MPPMLSGLLARLVKLLLGRHGSALHWRAAGAATVLLVIVLLAGSYLAVLAERGAPGAQLITYPRALWWSVETATTVGYGDLYPVTLWGRLVAVVVMVAGITSFGLVTAALATWFVGREQERRGHFVRHSEKAAEEAYTRTTRALHERFDRLERMLDDNRR
UniProt P12830, sequence (whole entry, looked up): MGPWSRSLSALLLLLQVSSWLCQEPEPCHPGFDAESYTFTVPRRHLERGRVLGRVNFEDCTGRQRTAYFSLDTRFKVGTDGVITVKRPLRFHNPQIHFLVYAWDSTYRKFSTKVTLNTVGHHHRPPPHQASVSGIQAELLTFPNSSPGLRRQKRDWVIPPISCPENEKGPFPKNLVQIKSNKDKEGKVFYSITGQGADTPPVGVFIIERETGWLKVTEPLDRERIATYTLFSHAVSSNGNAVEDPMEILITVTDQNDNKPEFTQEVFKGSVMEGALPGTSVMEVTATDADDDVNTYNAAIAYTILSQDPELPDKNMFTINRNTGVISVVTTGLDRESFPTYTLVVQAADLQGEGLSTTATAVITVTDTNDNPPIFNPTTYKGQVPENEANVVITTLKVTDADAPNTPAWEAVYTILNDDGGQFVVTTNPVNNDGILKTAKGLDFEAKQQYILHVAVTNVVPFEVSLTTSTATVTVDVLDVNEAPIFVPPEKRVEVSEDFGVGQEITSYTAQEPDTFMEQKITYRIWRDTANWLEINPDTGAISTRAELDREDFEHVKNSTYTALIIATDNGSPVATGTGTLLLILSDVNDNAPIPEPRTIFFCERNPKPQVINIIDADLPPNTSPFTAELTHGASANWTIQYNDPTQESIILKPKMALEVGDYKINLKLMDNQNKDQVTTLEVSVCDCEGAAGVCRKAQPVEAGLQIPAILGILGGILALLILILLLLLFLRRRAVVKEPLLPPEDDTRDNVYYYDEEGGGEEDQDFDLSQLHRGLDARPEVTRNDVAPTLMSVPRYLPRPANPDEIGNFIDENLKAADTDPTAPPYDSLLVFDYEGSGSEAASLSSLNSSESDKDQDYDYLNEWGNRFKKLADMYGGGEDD
UniProt P02930, sequence (whole entry, unmodified, looked up): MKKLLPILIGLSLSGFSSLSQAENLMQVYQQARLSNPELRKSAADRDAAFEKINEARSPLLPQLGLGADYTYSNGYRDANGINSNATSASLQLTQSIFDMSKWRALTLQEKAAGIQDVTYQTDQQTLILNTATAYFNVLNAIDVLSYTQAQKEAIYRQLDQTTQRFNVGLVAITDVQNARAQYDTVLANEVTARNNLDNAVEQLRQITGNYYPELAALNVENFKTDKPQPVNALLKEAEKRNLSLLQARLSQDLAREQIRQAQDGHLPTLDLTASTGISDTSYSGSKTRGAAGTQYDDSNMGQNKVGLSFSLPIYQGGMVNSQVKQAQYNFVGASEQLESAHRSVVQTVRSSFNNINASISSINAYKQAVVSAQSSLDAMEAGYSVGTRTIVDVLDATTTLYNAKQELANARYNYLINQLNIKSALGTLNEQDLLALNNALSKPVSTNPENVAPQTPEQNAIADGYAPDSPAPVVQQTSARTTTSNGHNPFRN
UniProt P26901, sequence (whole entry, looked up): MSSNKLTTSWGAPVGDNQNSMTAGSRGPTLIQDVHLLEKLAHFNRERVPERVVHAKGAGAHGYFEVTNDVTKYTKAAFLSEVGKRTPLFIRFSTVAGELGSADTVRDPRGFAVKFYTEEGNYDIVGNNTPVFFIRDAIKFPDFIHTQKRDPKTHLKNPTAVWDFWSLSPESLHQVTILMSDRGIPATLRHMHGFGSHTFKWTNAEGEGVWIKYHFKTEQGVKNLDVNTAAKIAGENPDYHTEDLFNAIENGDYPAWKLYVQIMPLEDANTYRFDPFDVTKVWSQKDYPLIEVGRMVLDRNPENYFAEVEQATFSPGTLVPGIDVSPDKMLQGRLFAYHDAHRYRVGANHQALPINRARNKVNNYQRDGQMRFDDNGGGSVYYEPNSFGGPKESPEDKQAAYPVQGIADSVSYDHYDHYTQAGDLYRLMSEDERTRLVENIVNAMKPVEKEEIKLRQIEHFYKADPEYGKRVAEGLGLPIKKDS

Substance | partner | technique | concentration | temperature | setting | added | subunits per oligomer
CAMK2D full length holoenzyme (Homo sapiens) | itself | mass photometry | – | – | – | – | 12
SUMO (Sulfolobus acidocaldarius) | itself | crystal structure | – | – | – | – | 2
Gl2 (Gossypium hirsutum) | itself | SEC-MALS | – | – | – | – | 4
B1 (EEF1A1) | T1, itself | SAXS | – | – | – | – | 2
Cap10 (Rhizobiales) | itself | crystal structure | – | – | – | – | 2
B2 (MIF) | itself | native MS | – | – | not purified | – | 3
clcA fragment C85A/H234C/F219A/I220A/I223A/I227A (Escherichia coli) | itself | SEC | – | – | – | – | 2
concanavalin A | itself | native MS | – | – | – | – | 4
Maackia amurensis seed lectin (Maackia amurensis) | itself | nonreducing SDS-PAGE | – | – | – | – | 2
UDP-2,3-diacylglucosamine hydrolase (Caulobacter crescentus) | itself | sedimentation equilibrium AUC | – | – | – | – | 2
CENPF fragment (Homo sapiens) | itself | SEC-MALS | – | – | – | – | 2
ALD1 fragment (Toxoplasma gondii) | itself | dynamic light scattering | – | – | – | – | 4
aspartyl-tRNA synthetase (Entamoeba histolytica) | itself | crystal structure | – | – | – | – | 2
ACAT1 fragment, pY407 (Homo sapiens) | itself | cross-linking | – | – | phosphorylated, wild type | – | 4
NuMA fragment SpM alanine substitutions (Homo sapiens) | itself | mass photometry | – | – | – | – | 2
B3 (Ano1) | T2, itself | cryo-EM | – | – | – | – | 2
popZ P146A (Caulobacter crescentus) | itself | mass photometry | 250 nM | – | no MgCl2 | – | 3
cyclase-phosphotriesterase fragment (Ruegeria pomeroyi) | itself | X-ray crystallography | – | – | – | – | 10
tas3 fragment (Schizosaccharomyces pombe) | itself | SEC | – | – | – | – | 3
bioE (Elizabethkingia meningoseptica) | itself | SEC | – | – | – | – | 2
EPAS1/ARNT bHLH/PAS domains (Homo sapiens) | itself | SEC-MALS | – | – | – | – | 2
LECA (Pisum sativum) | itself | SAXS | – | 65 °C | – | – | 2

Substance | partner | technique | concentration | temperature | setting | added | subunits per oligomer
katA dimer (Bacillus subtilis, UniProt P26901) | itself | SEC | – | – | – | – | 2
B4 (kcsA) | T3, itself | SDS-PAGE | – | – | – | – | 4
TolC mature monomer (Escherichia coli, UniProt P02930) | itself | SEC | – | – | – | – | 3
CAMK2D F368A/Q407A (Homo sapiens) | itself | mass photometry | – | – | – | – | 2
ATAT1 (Homo sapiens) | itself | mass photometry | – | – | – | – | 2
comFB (Thermoanaerobacter brockii) | itself | mass photometry | – | – | – | c-di-GMP 0.5 mM | 2
DNMT3L/sfGFP fusion (Homo sapiens) | itself | mass photometry | – | – | – | – | 2
sodN mature E17A/R47A (Streptomyces coelicolor) | itself | ESI-MS | – | – | denaturing conditions | – | 6
ERF fragment (Homo sapiens) | itself | crystal structure | – | – | oxidised, Cys72 disulfide | DNA | 4
sodN mature H1A (Streptomyces coelicolor) | itself | SEC | – | – | – | – | 6
gene 82 (mycobacteriophage) | itself | cross-linking | – | – | – | – | 3
MBP/MGM101 fragment (Saccharomyces cerevisiae) | itself | mass photometry | – | – | uncleaved fusion protein, no DNA | – | 19
CDH1 (Homo sapiens, UniProt P12830) | itself | FRET or BRET | – | – | in cells | – | 2
MXAN_1565 GAF-AAA+ domains (Myxococcus xanthus) | itself | cryo-EM | – | – | – | – | 2
popZ fragment (Caulobacter crescentus) | itself | mass photometry | 250 nM | – | – | – | 6
CLTC/CLTA triskelion (Bos taurus) | itself | light scattering | – | – | – | – | 3.65
popZ del129-134 (Caulobacter crescentus) | itself | mass photometry | 250 nM | – | – | – | 3
VPS1 I649K (Saccharomyces cerevisiae) | itself | cross-linking | – | – | – | – | 2
UBE3A (Homo sapiens, UniProt Q05086) | T4, itself | mass photometry | – | – | – | – | 3
SIR2 Y94A (Paenibacillus sp.) | itself | SEC, AUC | – | – | mutant | – | 2
sarcolamban 33 aa peptide (Daphnia pulex) | itself | SDS-PAGE | – | – | – | – | 5 and 3
